# Published values pooled from the literature.
# ± gives the spread as reported.
# Organism: Leishmania donovani
Compound,test,test system,conditions,scale,quantity,result
CCCCCCCCCCCCCCCCOP(=O)([O-])OCC[N+](C)(C)C,parasite growth,mouse Macrophage,"72 h, intracellular, amastigote",,EC50,3.3 µM
N=C(N)c1ccc(OCCCCCOc2ccc(C(=N)N)cc2)cc1,"viability, Alamar blue",axenic amastigote,"72 h, pH 5.5, 37 °C",,IC50,3.5 µM
Cc1cc2[nH]c(C(=O)Nc3ccccc3Cl)c(CN3CCOCC3)c2s1,parasite growth,THP-1,"80 µM, intracellular, amastigote",,inhibition,< 50%
O=Cc1c[nH]c2ccc([N+](=O)[O-])cc12,"parasite growth, resazurin",THP-1,"72 h, intracellular, amastigote",,IC50,> 10 µM
COc1ccc2c(c1)c1cc(C=O)c(OC)cc1n2C,"parasite growth, resazurin",,"72 h, promastigote",,IC50,> 148 µM
c1cnc(NCCCCCn2ccnc2)cn1,,J774.2 macrophages,"IC25, 240 h, day 10",reference: untreated,infection inhibition,50%
O=C1NC(=S)S/C1=C\c1cn(Cc2ccc(F)cc2)c2ccc([N+](=O)[O-])cc12,"parasite growth, resazurin",THP-1,"72 h, intracellular, amastigote",,IC50,> 10 µM
C[C@@H](c1ncncc1F)[C@](O)(Cn1cncn1)c1ccc(F)cc1F,LC-MS/MS,LV82 promastigote,"50 µM, 24 h, with episterol, 4-methylzymosterol, unit not given",reference: DMSO,fecosterol level,0.18 ± 0.06
Cc1ccc(Cn2cc(/C=C3\SC(=S)NC3=O)c3cc([N+](=O)[O-])ccc32)cc1,"parasite growth, resazurin",THP-1,"72 h, intracellular, amastigote",,IC50,5.91 µM
C[C@@H]1N[C@H](CCCCCCCCCCc2cc(CCCCCCCCCC[C@@H]3CC[C@H](O)[C@@H](C)N3)c3[n+](c2)CCC3)CC[C@H]1O,parasite growth,THP-1,"intracellular, amastigote",,IC90,8.74 mg/L
O=C1CSC(=S)N1/N=C/c1c[nH]c2ccc([N+](=O)[O-])cc12,"parasite growth, resazurin",THP-1,"24 h, intracellular, amastigote",,IC50,> 10 µM
Cn1c([N+](=O)[O-])cnc1COc1ccc(S(C)(=O)=O)cc1,parasite growth,"mouse peritoneal macrophages, LV9",intracellular amastigotes,,EC99,45.2 µM
N=C(N)c1ccc(OCCCCCOc2ccc(C(=N)N)cc2)cc1,parasite growth,THP-1,"intracellular, amastigote",,IC90,> 16.9 µM
C[C@@H]1[C@H](O)[C@@H](C)/C=C/C=C/C=C/C=C/C=C/C=C/C=C/[C@H](O[C@@H]2O[C@H](C)[C@@H](O)[C@H](N)[C@@H]2O)C[C@@H]2O[C@](O)(C[C@@H](O)C[C@@H](O)[C@H](O)CC[C@@H](O)C[C@@H](O)CC(=O)O[C@H]1C)C[C@H](O)[C@H]2C(=O)O,parasite growth,THP-1,"intracellular, amastigote",,IC90,1.74 mg/L
CSc1ccc(OCc2ncc([N+](=O)[O-])n2C)cc1,parasite growth,mouse Macrophage,"72 h, intracellular, amastigote",,EC50,> 50 µM
Clc1ccccc1C(c1ccccc1)(c1ccccc1)n1ccnc1,LC-MS/MS,LV82 promastigote,"20 µM, 24 h, with fecosterol, 4-methylzymosterol, unit not given",reference: DMSO,episterol level,0.025 ± 0.013
Cn1c([N+](=O)[O-])cnc1COc1ccc([S+](C)[O-])cc1 (stereo not drawn),parasite growth,mouse Macrophage,"72 h, intracellular, amastigote",,EC50,5.3 µM
C[C@@H]1[C@H](O)[C@@H](C)/C=C/C=C/C=C/C=C/C=C/C=C/C=C/[C@H](O[C@@H]2O[C@H](C)[C@@H](O)[C@H](N)[C@@H]2O)C[C@@H]2O[C@](O)(C[C@@H](O)C[C@@H](O)[C@H](O)CC[C@@H](O)C[C@@H](O)CC(=O)O[C@H]1C)C[C@H](O)[C@H]2C(=O)O,"parasite growth, resazurin",THP-1,"24 h, intracellular, amastigote",,IC50,0.05 µM

# Excerpt of the above:
Compound,test,test system,conditions,scale,quantity,result
C[C@@H]1[C@H](O)[C@@H](C)/C=C/C=C/C=C/C=C/C=C/C=C/C=C/[C@H](O[C@@H]2O[C@H](C)[C@@H](O)[C@H](N)[C@@H]2O)C[C@@H]2O[C@](O)(C[C@@H](O)C[C@@H](O)[C@H](O)CC[C@@H](O)C[C@@H](O)CC(=O)O[C@H]1C)C[C@H](O)[C@H]2C(=O)O,parasite growth,THP-1,"intracellular, amastigote",,IC90,1.74 mg/L
